# Results gathered from unrelated publications.
# Each numbered part is a random draw from the data of one study; scales do not carry over between parts.

# Block 1
# Target: Histone acetyltransferase KAT6A, winged helix 1, GST fusion (KAT6A, Homo sapiens, UniProt Q92794, residues 1-85)
# Method: protein binding microarray
# Molecule type: double-stranded DNA, one strand shown
# Sample: in vitro
# Concentration: not given
# Notes: 8-mer, flanks averaged, mean of 2 arrays, mostly near background
# Baseline: not given
# Reading: higher = stronger binding
# Residues (chain): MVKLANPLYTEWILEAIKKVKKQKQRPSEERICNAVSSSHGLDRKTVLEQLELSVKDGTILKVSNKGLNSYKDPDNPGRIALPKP
Sequence,E-score
ACGGCCGT,0.425
CTTGGTTC,-0.0347
GCTGAGCC,0.213

# Block 2
# Target: Ras GTPase-activating protein-binding protein 1, C-terminal RGG region (G3BP1, Homo sapiens, UniProt Q13283)
# Sequence of UniProt Q13283 (whole entry, looked up): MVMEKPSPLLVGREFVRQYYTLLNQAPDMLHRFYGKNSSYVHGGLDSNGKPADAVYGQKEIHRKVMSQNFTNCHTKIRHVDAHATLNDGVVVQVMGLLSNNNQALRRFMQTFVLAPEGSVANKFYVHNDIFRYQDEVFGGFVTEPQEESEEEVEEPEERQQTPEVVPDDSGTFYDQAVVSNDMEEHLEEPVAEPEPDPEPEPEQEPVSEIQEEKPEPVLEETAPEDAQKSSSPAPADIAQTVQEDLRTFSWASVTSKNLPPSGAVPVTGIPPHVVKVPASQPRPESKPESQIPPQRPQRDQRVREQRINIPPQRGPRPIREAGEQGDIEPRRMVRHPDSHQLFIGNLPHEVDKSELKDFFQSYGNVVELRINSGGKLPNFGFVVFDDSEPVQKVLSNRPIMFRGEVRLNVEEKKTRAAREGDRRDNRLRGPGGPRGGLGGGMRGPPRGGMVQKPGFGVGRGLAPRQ
# Method: RNA Bind-n-Seq
# Molecule type: RNA
# Sample: in vitro
# Concentration: 1 µM
# Notes: whole 134-nt RNA, ends assumed
# With: 150 mM KCl
# Baseline: input library
# Reading: higher = stronger binding
Sequence,log2 enrichment
GGGAGUUCUACAGUCCGACGAUCUAACUUUAGAGGAUGAUCUGAUGGAUAUGGCAGUGGACGUGGAUUUGGGGAUGGCUAUAAUGGGUAUGGAGGAGGACCUGGAGGUGGCAAUGGAAUUCUCGGGUGUCAAGG,-1.25
GGGAGUUCUACAGUCCGACGAUCUGGCCCUGGUAGCAUGCGGGGAGGAAGAGGUGGCCUCAUGGAUCGUGGUGGUCCCGGUGGAAUGUUCAGAGGUGGCCGUGGUGGAGACAGUGGAAUUCUCGGGUGUCAAGG,2.31
GGGAGUUCUACAGUCCGACGAUCCUGUGCUACACAUCGUAUGUACCGAAUCGGGGUUUUUUUGGGGAAAGGGGAAAAAAAGGGGAAAGUAUUAUGUUACGCCGUUCGGAUCUGUGGAAUUCUCGGGUGUCAAGG,-0.601
GGGAGUUCUACAGUCCGACGAUCUAACUUUAGAGGAGGAUCUGAUGGAUAUGGCAGUGGACGUGGAUUUGGGGAUGGCUAUAAUGGGUAUGGAGGACGACCUGGAGGUGGCAAUGGAAUUCUCGGGUGUCAAGG,-1.43

# Block 3
# Target: Interferon regulatory factor 7, full length, phosphomimetic (IRF7, Homo sapiens, UniProt Q92985, residues 1-503, S471D/S472D/S475D/S476D/S477D/S483D/S484D/S487D)
# Method: protein-binding microarray
# Molecule type: double-stranded DNA, one strand shown
# Sample: in vitro
# Concentration: 2200 nM top
# Notes: 60-bp whole probe
# With: salmon DNA 0.4 mg/ml
# Baseline: random background probes
# Reading: higher = stronger binding
# Target sequence (chain): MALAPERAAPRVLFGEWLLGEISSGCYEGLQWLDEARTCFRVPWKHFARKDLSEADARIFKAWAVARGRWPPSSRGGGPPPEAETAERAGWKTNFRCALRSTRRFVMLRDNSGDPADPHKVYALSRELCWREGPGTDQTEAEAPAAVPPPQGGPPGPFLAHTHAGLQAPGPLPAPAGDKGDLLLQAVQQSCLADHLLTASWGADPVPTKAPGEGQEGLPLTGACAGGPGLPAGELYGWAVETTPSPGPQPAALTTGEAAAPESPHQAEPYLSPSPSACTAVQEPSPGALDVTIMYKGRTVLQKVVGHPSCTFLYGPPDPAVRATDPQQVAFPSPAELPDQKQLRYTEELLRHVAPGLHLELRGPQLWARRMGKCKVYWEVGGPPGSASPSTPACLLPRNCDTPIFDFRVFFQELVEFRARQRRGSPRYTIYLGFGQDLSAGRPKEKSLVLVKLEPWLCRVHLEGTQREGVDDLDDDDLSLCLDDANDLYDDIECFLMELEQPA
Sequence,fitted relative affinity [z-score]
GCCTAGCACGTCGGTATCCTTTTCCTGACGTGCTAGGTCTTGATTCGCTTGACGCTGCTG,2.13
GCCTAGCACGACGGTTTCCTACTTCTGACGTGCTAGGTCTTGATTCGCTTGACGCTGCTG,2.43
GCCTAGCACTTAGGTTTCCTTCTCGTTTAGTGCTAGGTCTTGATTCGCTTGACGCTGCTG,2.23

# Other studies, line by line
Substance,target,test,test system,setting,how to read,measurement,value
"PhoQ, residues 284 288 289 292 302 303 QWQEDG","PhoP, residues 12 14 15 18 19 NQAHL (Escherichia coli, UniProt P23836)","Sort-seq, item: YFP reporter",E. coli,"PhoQ-PhoP variant library, with: 10 µM Mg2+","baseline: high Mg2+ state, higher = stronger signaling",fold induction,1.58

# Excerpt of the above (block 1):
Sequence,E-score
CTTGGTTC,-0.0347
GCTGAGCC,0.213
